Measurements collected from several papers.
Each numbered part is a random draw from the data of one study; scales do not carry over between parts.

Block 1
Target: RNA binding protein fox-1 homolog 2, RRM domain, GST-SBP tag (RBFOX2, Homo sapiens, UniProt O43251-10, residues 100-194)
Method: RNA Bind-n-Seq
Molecule type: RNA
Sample: in vitro
Tested at: 365 nM
Setting: natural RNA segment, single round, ends assumed
Reference: no-protein control
Direction: higher = stronger binding
Measurement: RBNS enrichment (R)
Target sequence (chain): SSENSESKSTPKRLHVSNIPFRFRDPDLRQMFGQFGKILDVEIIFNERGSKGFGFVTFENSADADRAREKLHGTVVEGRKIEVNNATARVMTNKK
GGGAGUUCUACAGUCCGACGAUCUCUCACAGAAUGCUCAUCAUUCUCCUUCAGCUGUUGCCAUUUUCUUUCAAUCUGAAAAUUAAAGACAUUGGAGAGAAAGGCUAACCACUUAAUGGUGCUUAAAAAUCGGGUGGAAUUCUCGGGUGCCAA: 0.394
GGGAGUUCUACAGUCCGACGAUCGCCCACCACCCCUGGGUGCUCAGUUUCUACCAACAUGAGCCAGCAAGUCCUUGUGGUAGCCCUGGGGUAGCCUGUAGUAGACUCGGGUCCUGUCCACAGCCCUAGCUGCCUGGAAUUCUCGGGUGCCAA: 0.619
GGGAGUUCUACAGUCCGACGAUCCCACCAUGGCACAGGUGCUAUGGCGGGAUGGUCAUCUCACUCCCUAGCUUCCUGUGGGUCAGGAGUGCAGAGCCACAGCCCACCCUGAACUGUCUGUGCCAGUGAGCGCCUGGAAUUCUCGGGUGCCAA: 0.248
GGGAGUUCUACAGUCCGACGAUCUAUUAAACACUAACAUCUGAGUUUCACCUAAUCUGUUUCUGUGCCAUAUACUGGGUAUCCAAGCUCUGGGAAGUUAUCCUACCAGGCCCUGAUCUGUUGAUAAGGCACUAUGGAAUUCUCGGGUGCCAA: 0.338

Block 2
Target: PABPC1L2, full length, GST fusion (mouse, UniProt A0ABA7IW68)
Method: RNAcompete
Molecule type: RNA
Sample: in vitro
Tested at: 20 nM
Setting: 7-mer, probes averaged, single round
Reference: mean of 7-mers
Direction: higher = stronger binding
Measurement: 7-mer Z-score
Target sequence (chain): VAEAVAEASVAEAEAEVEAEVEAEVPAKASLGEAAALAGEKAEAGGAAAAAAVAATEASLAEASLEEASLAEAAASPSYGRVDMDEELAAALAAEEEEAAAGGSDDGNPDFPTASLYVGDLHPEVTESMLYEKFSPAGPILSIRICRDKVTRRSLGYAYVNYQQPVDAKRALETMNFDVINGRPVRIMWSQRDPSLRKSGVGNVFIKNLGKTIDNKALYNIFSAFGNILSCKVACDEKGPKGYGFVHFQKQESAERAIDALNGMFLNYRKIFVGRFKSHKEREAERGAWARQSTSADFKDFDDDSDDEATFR
UGAUCUA: -0.159
UGACCGG: -0.139
GCGUCUU: -0.373
CACAUUC: -0.307
CGCUGGG: -0.0754
GGCCUGG: -0.197
CAUAGGC: -0.0192

Other studies, line by line
UNK zinc fingers 1-6, GST-SBP tag: RING finger protein unkempt homolog, zinc fingers 1-6, GST-SBP tag (UNK, Homo sapiens, UniProt Q9C0B0, residues 30-357)
UniProt Q9C0B0, sequence (30-357, looked up): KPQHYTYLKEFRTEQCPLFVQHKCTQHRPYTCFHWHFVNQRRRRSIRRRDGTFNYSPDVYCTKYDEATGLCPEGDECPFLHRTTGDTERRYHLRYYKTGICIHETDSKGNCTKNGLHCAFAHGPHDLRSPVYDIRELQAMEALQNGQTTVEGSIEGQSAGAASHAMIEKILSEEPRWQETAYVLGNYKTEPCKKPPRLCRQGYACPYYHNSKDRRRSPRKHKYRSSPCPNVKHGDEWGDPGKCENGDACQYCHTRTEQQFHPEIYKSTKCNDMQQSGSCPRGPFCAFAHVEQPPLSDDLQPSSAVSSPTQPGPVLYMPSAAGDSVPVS
GGGAGUUCUACAGUCCGACGAUCACCGCAGCUGCUGCGCCUAUGAUUGGCUAUCCCAUGCCAACAGGGUAUUCUCAAUAAGACUUCCGAAGUAUAUGUAAAUGUCUGUUUUUCAUAAUUGCUCUUUAUAUUGUGUGUUAUCAGCAACAGAGGAUUGAGCAUCA — bound/input enrichment (UNK zinc fingers 1-6, GST-SBP tag; RNA Bind-n-Seq; RNA, in vitro; not given, RNA with constant flanks, ends assumed; reference: input RNA pool, higher = stronger binding): 0.281 ratio
PhoQ, residues 284 288 289 292 302 303 SCKMEA — fold induction (PhoP, residues 12 14 15 18 19 TPWLV (Escherichia coli, UniProt P23836); Sort-seq, measured: YFP reporter; E. coli; PhoQ-PhoP variant library, added: 10 µM Mg2+; reference: high Mg2+ state, higher = stronger signaling): 15.3
GGGAGUUCUACAGUCCGACGAUCGAUACUGGCAAACUGACCGGUGGAUCAUUUACCAUGAAAUACCAUGAUAUGCCUGACGUCAUAGAUUUUCUAGUCUUGAGACAACAAUUUGAUGAUGCAAAGUAUAGACGAUGGAAUAUACAACAGAGGAUUGAGCAUCA — bound/input enrichment (UNK zinc fingers 1-6, GST-SBP tag; RNA Bind-n-Seq; RNA, in vitro; not given, RNA with constant flanks, human and mouse sites, ends assumed; reference: input RNA pool, higher = stronger binding): 0.761 ratio
GGGAGUUCUACAGUCCGACGAUCUGGCAGCUGGCUUCUUUGGCUCGUUAUUAUGUCUGUGAGAUUUAUUCAUGUUGCUGUGCGCCGUACCGUUUGUGCAUGUUCAUUGCUAAAAACUUCCAUUGUUUGGCUGUAUCGUAGUUCCAACAGAGGAUUGAGCAUCA — bound/input enrichment (UNK zinc fingers 1-6, GST-SBP tag; RNA Bind-n-Seq; RNA, in vitro; not given, RNA with constant flanks, ends assumed; reference: input RNA pool, higher = stronger binding): 0.383 ratio
GGGAGUUCUACAGUCCGACGAUCGAAAAGCCAUCUCCUAUUCAGGAGGAGAGCAUUCCCAUUGCUUUAUCUGGUAGGGAUAUCUUAGCUAGAGCAAAAAAUGGAACAGGCAAGAGCGGUGCCUACCUCAUUCCCUUACUUGAACAACAGAGGAUUGAGCAUCA — bound/input enrichment (UNK zinc fingers 1-6, GST-SBP tag; RNA Bind-n-Seq; RNA, in vitro; not given, RNA with constant flanks, human and mouse sites, ends assumed; reference: input RNA pool, higher = stronger binding): 0.222 ratio

Some of these lines once more (other studies, line by line):
GGGAGUUCUACAGUCCGACGAUCACCGCAGCUGCUGCGCCUAUGAUUGGCUAUCCCAUGCCAACAGGGUAUUCUCAAUAAGACUUCCGAAGUAUAUGUAAAUGUCUGUUUUUCAUAAUUGCUCUUUAUAUUGUGUGUUAUCAGCAACAGAGGAUUGAGCAUCA — bound/input enrichment (UNK zinc fingers 1-6, GST-SBP tag; RNA Bind-n-Seq; RNA, in vitro; not given, RNA with constant flanks, ends assumed; reference: input RNA pool, higher = stronger binding): 0.281 ratio
GGGAGUUCUACAGUCCGACGAUCUGGCAGCUGGCUUCUUUGGCUCGUUAUUAUGUCUGUGAGAUUUAUUCAUGUUGCUGUGCGCCGUACCGUUUGUGCAUGUUCAUUGCUAAAAACUUCCAUUGUUUGGCUGUAUCGUAGUUCCAACAGAGGAUUGAGCAUCA — bound/input enrichment (UNK zinc fingers 1-6, GST-SBP tag; RNA Bind-n-Seq; RNA, in vitro; not given, RNA with constant flanks, ends assumed; reference: input RNA pool, higher = stronger binding): 0.383 ratio
GGGAGUUCUACAGUCCGACGAUCGAAAAGCCAUCUCCUAUUCAGGAGGAGAGCAUUCCCAUUGCUUUAUCUGGUAGGGAUAUCUUAGCUAGAGCAAAAAAUGGAACAGGCAAGAGCGGUGCCUACCUCAUUCCCUUACUUGAACAACAGAGGAUUGAGCAUCA — bound/input enrichment (UNK zinc fingers 1-6, GST-SBP tag; RNA Bind-n-Seq; RNA, in vitro; not given, RNA with constant flanks, human and mouse sites, ends assumed; reference: input RNA pool, higher = stronger binding): 0.222 ratio
